Results collected from several papers.
Compare with care: the assays were run in different laboratories. ± marks the error that the study gave.
Mapk1: Mitogen-activated protein kinase 1 (Mapk1, Rattus norvegicus, UniProt P63086)
Chain of UniProt P63086 (whole entry, looked up): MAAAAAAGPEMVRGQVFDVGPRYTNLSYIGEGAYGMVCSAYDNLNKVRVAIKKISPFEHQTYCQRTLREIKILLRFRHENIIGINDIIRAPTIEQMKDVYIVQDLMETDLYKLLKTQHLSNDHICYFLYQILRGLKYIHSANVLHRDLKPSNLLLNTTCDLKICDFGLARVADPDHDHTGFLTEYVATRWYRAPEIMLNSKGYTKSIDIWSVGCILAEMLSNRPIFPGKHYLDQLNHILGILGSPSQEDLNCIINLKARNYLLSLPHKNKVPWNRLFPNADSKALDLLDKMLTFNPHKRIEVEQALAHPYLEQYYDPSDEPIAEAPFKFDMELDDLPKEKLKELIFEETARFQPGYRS
Chain of UniProt P20273 (whole entry, looked up): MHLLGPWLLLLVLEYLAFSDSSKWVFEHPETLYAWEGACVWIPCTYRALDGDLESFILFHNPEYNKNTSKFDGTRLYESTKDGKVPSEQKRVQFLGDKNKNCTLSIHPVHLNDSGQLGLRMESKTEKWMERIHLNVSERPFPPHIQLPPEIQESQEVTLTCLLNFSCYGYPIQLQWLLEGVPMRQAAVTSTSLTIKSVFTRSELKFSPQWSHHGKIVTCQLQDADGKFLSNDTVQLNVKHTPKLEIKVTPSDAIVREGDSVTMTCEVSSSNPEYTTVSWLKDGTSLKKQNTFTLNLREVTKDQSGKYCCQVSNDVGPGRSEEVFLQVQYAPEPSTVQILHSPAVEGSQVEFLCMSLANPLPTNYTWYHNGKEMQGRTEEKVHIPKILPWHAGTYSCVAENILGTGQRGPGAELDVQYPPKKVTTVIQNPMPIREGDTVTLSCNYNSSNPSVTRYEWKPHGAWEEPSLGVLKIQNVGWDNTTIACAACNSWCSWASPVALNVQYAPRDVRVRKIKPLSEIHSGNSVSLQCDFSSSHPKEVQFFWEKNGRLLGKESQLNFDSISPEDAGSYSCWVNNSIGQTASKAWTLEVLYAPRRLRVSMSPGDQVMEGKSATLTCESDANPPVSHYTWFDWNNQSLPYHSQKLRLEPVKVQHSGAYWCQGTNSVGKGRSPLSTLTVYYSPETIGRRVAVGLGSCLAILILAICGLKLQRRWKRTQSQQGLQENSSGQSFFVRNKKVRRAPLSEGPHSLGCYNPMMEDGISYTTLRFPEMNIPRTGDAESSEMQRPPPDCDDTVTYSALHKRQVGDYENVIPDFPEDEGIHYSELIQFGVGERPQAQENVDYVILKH
Chain of UniProt P40306 (whole entry, looked up): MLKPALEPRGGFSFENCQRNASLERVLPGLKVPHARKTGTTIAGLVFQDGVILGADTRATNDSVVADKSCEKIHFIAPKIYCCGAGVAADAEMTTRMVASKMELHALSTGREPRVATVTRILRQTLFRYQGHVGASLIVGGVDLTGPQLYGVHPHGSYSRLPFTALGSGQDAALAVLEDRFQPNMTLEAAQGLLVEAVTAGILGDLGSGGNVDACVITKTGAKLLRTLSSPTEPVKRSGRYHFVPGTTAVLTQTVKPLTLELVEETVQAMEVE
Chain of UniProt P10275 (whole entry, looked up): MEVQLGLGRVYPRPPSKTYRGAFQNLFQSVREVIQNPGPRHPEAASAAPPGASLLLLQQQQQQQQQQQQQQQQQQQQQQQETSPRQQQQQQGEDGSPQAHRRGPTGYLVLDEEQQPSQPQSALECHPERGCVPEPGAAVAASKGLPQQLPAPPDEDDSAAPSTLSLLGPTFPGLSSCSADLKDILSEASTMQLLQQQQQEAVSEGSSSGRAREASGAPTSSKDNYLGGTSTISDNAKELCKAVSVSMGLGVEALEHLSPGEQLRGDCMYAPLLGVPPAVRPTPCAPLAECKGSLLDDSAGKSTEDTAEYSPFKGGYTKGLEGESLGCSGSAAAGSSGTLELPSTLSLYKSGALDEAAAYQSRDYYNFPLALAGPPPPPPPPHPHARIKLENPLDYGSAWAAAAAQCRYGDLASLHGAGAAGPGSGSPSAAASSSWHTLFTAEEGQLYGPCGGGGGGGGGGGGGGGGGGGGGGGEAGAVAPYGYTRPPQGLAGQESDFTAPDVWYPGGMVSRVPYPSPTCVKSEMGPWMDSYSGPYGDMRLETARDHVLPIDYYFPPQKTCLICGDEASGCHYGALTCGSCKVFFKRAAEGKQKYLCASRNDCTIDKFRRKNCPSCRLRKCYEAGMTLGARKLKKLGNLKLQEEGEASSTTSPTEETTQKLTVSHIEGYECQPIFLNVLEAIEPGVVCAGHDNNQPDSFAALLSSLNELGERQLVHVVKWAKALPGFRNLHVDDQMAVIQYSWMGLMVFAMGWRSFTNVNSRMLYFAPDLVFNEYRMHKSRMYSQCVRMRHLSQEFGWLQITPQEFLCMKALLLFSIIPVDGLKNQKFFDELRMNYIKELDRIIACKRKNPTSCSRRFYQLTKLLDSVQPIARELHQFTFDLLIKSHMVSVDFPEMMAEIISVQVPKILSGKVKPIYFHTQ
Chain of UniProt Q8IY17 (whole entry, looked up): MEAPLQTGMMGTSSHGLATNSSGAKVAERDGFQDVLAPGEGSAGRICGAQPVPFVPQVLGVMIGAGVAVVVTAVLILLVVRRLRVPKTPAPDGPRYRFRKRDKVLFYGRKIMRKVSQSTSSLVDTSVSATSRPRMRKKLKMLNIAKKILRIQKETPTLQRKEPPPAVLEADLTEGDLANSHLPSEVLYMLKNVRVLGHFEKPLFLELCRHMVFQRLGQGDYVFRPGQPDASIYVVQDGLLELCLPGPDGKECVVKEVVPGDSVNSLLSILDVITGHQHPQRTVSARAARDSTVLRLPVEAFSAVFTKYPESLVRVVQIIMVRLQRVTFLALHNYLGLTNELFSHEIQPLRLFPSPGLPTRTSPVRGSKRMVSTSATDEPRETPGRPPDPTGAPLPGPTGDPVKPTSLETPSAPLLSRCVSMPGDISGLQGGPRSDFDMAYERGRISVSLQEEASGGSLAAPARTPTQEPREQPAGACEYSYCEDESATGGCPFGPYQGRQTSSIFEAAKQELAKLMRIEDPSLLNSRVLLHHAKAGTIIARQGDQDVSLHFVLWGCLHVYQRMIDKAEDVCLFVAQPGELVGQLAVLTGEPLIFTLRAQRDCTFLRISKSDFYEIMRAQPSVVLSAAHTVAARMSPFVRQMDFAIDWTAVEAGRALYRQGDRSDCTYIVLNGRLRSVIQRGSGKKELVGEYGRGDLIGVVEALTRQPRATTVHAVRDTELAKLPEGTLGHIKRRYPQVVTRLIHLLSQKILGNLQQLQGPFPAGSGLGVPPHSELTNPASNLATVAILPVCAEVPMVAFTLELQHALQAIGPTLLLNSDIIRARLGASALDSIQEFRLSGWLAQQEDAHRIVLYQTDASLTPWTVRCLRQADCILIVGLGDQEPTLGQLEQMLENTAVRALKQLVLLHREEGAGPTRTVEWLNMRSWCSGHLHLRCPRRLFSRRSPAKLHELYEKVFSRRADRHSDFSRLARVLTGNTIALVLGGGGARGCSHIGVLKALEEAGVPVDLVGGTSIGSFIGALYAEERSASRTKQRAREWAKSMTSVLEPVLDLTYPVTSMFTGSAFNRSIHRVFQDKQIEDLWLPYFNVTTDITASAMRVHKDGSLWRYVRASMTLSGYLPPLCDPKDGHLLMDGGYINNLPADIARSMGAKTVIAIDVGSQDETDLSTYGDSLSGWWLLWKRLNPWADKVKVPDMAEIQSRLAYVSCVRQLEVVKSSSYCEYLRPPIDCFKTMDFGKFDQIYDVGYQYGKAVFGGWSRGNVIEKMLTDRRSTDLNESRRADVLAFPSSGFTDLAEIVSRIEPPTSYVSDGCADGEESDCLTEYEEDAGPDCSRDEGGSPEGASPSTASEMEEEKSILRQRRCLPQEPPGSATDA
Chain of UniProt P28065 (whole entry, looked up): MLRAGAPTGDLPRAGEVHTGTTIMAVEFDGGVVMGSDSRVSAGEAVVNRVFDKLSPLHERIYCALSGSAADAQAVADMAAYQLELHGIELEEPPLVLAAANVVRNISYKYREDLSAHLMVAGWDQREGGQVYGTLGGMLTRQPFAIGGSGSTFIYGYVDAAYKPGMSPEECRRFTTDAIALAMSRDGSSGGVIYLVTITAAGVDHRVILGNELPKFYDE
Chain of UniProt P35462 (whole entry, looked up): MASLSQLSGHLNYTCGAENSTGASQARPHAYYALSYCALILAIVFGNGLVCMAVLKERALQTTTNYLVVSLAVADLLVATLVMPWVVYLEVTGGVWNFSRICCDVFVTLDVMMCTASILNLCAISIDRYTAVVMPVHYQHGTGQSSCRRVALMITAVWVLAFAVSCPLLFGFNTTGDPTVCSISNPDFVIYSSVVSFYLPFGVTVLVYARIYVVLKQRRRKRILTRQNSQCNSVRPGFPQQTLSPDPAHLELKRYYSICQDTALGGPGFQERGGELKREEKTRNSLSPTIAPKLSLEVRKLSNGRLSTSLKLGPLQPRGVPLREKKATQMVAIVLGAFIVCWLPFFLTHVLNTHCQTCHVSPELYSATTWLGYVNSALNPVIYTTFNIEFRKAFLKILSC
Chain of UniProt P51681 (whole entry, looked up): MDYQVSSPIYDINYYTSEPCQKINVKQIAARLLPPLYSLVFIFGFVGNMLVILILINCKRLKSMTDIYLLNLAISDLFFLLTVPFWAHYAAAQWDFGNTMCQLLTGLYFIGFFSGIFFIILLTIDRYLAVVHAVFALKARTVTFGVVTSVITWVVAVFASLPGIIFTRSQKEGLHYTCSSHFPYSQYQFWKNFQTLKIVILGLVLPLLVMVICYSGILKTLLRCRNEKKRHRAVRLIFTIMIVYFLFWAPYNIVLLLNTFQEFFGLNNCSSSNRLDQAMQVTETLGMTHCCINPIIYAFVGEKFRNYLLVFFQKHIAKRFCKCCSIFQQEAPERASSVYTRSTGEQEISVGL

| SMILES | target or system | test | test system | conditions | measurement | value |
| --- | --- | --- | --- | --- | --- | --- |
| CC[C@H](C)[C@H](NC(=O)[C@H](CC(C)C)NC(=O)[C@H](C)NC(=O)[C@H](CCC(=O)O)NC(=O)[C@H](C)NC(=O)[C@H](CCCNC(=N)N)NC(=O)[C@@H]1CCCN1C(=O)[C@H](CCCNC(=N)N)NC(=O)[C@H](CCC(N)=O)NC(=O)[C@H](CCCCN)NC(=O)[C@@H]1CCCN1C(=O)[C@H](C)NC(=O)[C@@H](N)Cc1ccc(O)cc1)C(=O)N[C@H](C(=O)N1CCC[C@H]1C(=O)N[C@H](C(=O)O)[C@@H](C)O)[C@@H](C)CC | Mapk1 | enzyme activity, inhibitor, fluorescence | – | pH 7.4 | IC50 | 196 µM |
| Cc1ccc(NS(=O)(=O)c2c(C)[nH]c(C)c2C(=O)N2CCCC2)cc1 | DRD3 (Homo sapiens, UniProt P35462) | Go activation, antagonist, BRET | – | added: dopamine | IC50 | > 100 µM |
| CC[C@H](C)[C@H](NC(=O)[C@H](C)NC(=O)[C@@H](N)Cc1ccc(O)cc1)C(=O)N[C@@H](CCCNC(=N)N)C(=O)N[C@@H](C)C(=O)N[C@@H](CCCNC(=N)N)C(=O)N[C@@H](CCCNC(=N)N)C(=O)NCC(=O)N[C@@H](CC(C)C)C(=O)N[C@@H](C)C(=O)N[C@@H](CCCNC(=N)N)C(=O)N[C@@H](CC(C)C)C(=O)N[C@@H](C)C(=O)N[C@H](C(=O)N[C@@H](CO)C(=O)N[C@@H](CC(=O)O)C(=O)O)C(C)C | Mapk1 | enzyme activity, inhibitor, fluorescence | – | pH 7.4 | IC50 | 10.6 µM |
| COc1cc(CN2CCN(C(=O)Cc3ccccc3)CC2)cc(OC)c1O | Alpha-synuclein, fibrils (SNCA, Homo sapiens, UniProt P37840) | fibril growth, conformation-specific ELISA | – | 20 h, added: 6 µM monomer | IC50 | 2 ± 2 µM |
| CC1(C)NC(=O)N(c2ccc(F)c(C(C)(F)F)c2)C1=O | Androgen receptor (AR, Homo sapiens, UniProt P10275) | reporter gene, antagonist | – | – | IC50 | 31 µM |
| CCCC(N)P(=O)(Oc1ccccc1)Oc1ccccc1 (stereo not drawn) | Patatin-like phospholipase domain-containing protein 6 (PNPLA6, Homo sapiens, UniProt Q8IY17) | – | – | – | IC50 | 14.4 µM |
| O=C1NC2(CC2)COc2ncc(F)cc2[C@H]2COCCN2c2ccn3ncc1c3n2 | – | – | Sprague-Dawley rat, male, testes | oral, 20 mg/kg/day, 4 weeks, end of treatment | organ-to-body weight ratio | 0.768 ± 0.072% |
| CC(C)N1CCCCC1C(=O)NC(Cc1ccc(-c2ccccc2)cc1)B(O)O (stereo not drawn) | Proteasome subunit beta type-9 / Proteasome subunit beta type-10 (Homo sapiens, UniProt P28065+P40306) | β1i activity, inhibitor | – | immunoproteasome, added: Ac-PAL-AMC | IC50 | > 10 µM |
| Cc1nnc(C(C)C)n1C1CC2CCC(C1)N2CCC(NC(=O)Cc1ccc(-c2nncnn2)cc1)c1ccccc1 (stereo not drawn) | CCR5 (Homo sapiens, UniProt P51681) | calcium mobilization, antagonist | HEK-293T | 2 h preincubation, top constrained to 1, added: 0.1 µM PSC-RANTES | IC50 | 0.00891 µM |
| CC[C@H](C)[C@H](NC(=O)[C@H](CC(C)C)NC(=O)[C@@H]1CCCN1C(=O)[C@H](CCCNC(=N)N)NC(=O)[C@@H]1CCCN1C(=O)[C@H](CCCCN)NC(=O)[C@H](Cc1c[nH]cn1)NC(=O)[C@H](CCCNC(=N)N)NC(=O)[C@H](Cc1ccccc1)NC(=O)[C@H](CCCCN)NC(=O)[C@H](CCCCN)NC(=O)[C@H](C)NC(=O)[C@@H](N)Cc1ccc(O)cc1)C(=O)N[C@@H](CC(C)C)C(=O)N1CCC[C@H]1C(=O)N1CCC[C@H]1C(=O)O | Mapk1 | enzyme activity, inhibitor, fluorescence | – | pH 7.4 | IC50 | 2.08 µM |
| Cc1ncc([N+](=O)[O-])n1CC(O)Cn1cc(CO[C@]2(C(=O)O)C[C@H](O)[C@@H](NC(=O)CF)[C@H]([C@H](O)[C@H](O)CNC(=O)c3ccc(Oc4ccccc4)cc3)O2)nn1 (stereo partly drawn) | CD22 (Homo sapiens, UniProt P20273) | ligand binding, inhibitor, competitive bead binding flow cytometry | – | added: 6'SLN(Gc)-PAA-biotin beads | IC50 | 0.25 ± 0.04 µM |
| CCCN(Cc1nnc(-c2ccco2)o1)C(=O)C1CCCN(C(=O)c2ccc(Cl)cc2)C1 (stereo not drawn) | PFF0160c (Plasmodium falciparum, UniProt Q08210, E182D) | enzyme activity, inhibitor, absorbance | – | – | IC50 | 1.03 µM |

Excerpt of the above:
| SMILES | target or system | test | test system | conditions | measurement | value |
| --- | --- | --- | --- | --- | --- | --- |
| Cc1ccc(NS(=O)(=O)c2c(C)[nH]c(C)c2C(=O)N2CCCC2)cc1 | DRD3 (Homo sapiens, UniProt P35462) | Go activation, antagonist, BRET | – | added: dopamine | IC50 | > 100 µM |
